Measurements from different studies.
Protocols differ between the studies behind these lines. Numbers after ± are the reported error.

`Cc1ccc2nc(Cl)c3cc(C(=O)NCCCN4CCC(C)CC4)sc3c2c1` has a maximum response of -5.3% (Vero-E6; CellTiter-Glo ATP; 72 h, retest 8-point duplicates; relative to: DMSO 0%, hyamine -100%, more negative, more toxic).
For `CC(C)(C)c1cc(-n2nc3ccccc3n2)c(O)c(C(C)(C)C)c1`, “daily dermal exposure dose” read 4.54 ng/kg/day (human aged 6-11 years; concentration not given, spray sunscreen, mean).
For `CC(C)[C@@H]1NC(=O)CNC(=O)[C@H](CC(N)=O)NC(=O)[C@H](CCCNC(=N)N)NC(=O)[C@H](Cc2ccc(O)cc2)NC(=O)[C@H](C(C)C)NC(=O)[C@@H](NC(=O)[C@@H](NC(=O)[C@H](CC(N)=O)NC(=O)[C@H](Cc2c[nH]c3ccccc23)NC(=O)[C@H](C)NC(=O)[C@H](Cc2ccccc2)NC(=O)CN)C(C)C)CSSC[C@@H](C(=O)N[C@@H](Cc2cnc[nH]2)C(=O)N[C@@H](CCCNC(=N)N)C(=O)N[C@@H](CCCNC(=N)N)C(=O)N[C@@H](C)C(=O)N[C@@H](CC(N)=O)C(N)=O)NC(=O)[C@H](C(C)C)NC(=O)[C@H](CCCNC(=N)N)NC1=O`, “mean corpuscular volume” read 40.5 ± 1.17 fL (ICR mice, blood; intraperitoneal, 5 mg/kg, day 5).
The Anaemia incidence of `Cc1cc(C)c(CNC(=O)c2cc(Cl)c3c(c2C)O[C@@](C)([C@H]2CC[C@H](N(C)C)CC2)O3)c(=O)[nH]1` is reported as 0% (human, relapsed/refractory NHL; concentration not given, treatment-related TEAEs, grade 5).
Under “patients with dizziness”, `C=CC(=O)Nc1cc(Nc2nccc(Nc3cc(Cl)c(F)cc3C(C)(C)O)n2)c(OC)cc1N1CC[C@@H](N(C)C)C1` is recorded as 6.3% (human patients; oral, 200 mg, treatment-emergent adverse events).
With `CC[C@H](C)[C@H](NC(=O)[C@H](CC(C)C)NC(=O)[C@H](Cc1c[nH]c2ccccc12)NC(=O)[C@H](CCC(N)=O)NC(=O)[C@@H](NC(=O)[C@H](Cc1ccccc1)NC(=O)[C@H](C)NC(=O)[C@H](CCCCNC(=O)COCCOCCNC(=O)COCCOCCNC(=O)CC[C@H](NC(=O)CCCCCCCCCCCCCCCCCCC(=O)O)C(=O)O)NC(=O)[C@H](CCC(N)=O)NC(=O)[C@H](C)NC(=O)[C@@H](NC(=O)[C@H](CCCCN)NC(=O)[C@H](CC(=O)O)NC(=O)[C@H](CC(C)C)NC(=O)C(C)(C)NC(=O)[C@@H](NC(=O)[C@H](CO)NC(=O)[C@H](Cc1ccc(O)cc1)NC(=O)[C@H](CC(=O)O)NC(=O)[C@H](CO)NC(=O)[C@@H](NC(=O)[C@H](Cc1ccccc1)NC(=O)[C@@H](NC(=O)CNC(=O)[C@H](CCC(=O)O)NC(=O)C(C)(C)NC(=O)[C@@H](N)Cc1ccc(O)cc1)[C@@H](C)O)[C@@H](C)O)[C@@H](C)CC)[C@@H](C)CC)C(C)C)C(=O)N[C@@H](C)C(=O)NCC(=O)NCC(=O)N1CCC[C@H]1C(=O)N[C@@H](CO)C(=O)N[C@@H](CO)C(=O)NCC(=O)N[C@@H](C)C(=O)N1CCC[C@H]1C(=O)N1CCC[C@H]1C(=O)N1CCC[C@H]1C(=O)N[C@@H](CO)C(N)=O` the AUC(0-tau) was 26100 ng·h/mL (human, plasma; subcutaneous, 2.5 mg first dose, week 1, 10 mg group, tau 168 h, geometric mean).
`O=c1ccc2cc3ccoc3cc2o1` has an AUC(0-inf) of 15400 ± 6730 ng·h/mL (rat, plasma; oral, 217 mg/kg Pc extract).
For `O=[N+]([O-])NC1=NCCN1Cc1ccc(Cl)nc1`, “final permeate concentration” read 165 nM (ultrafiltration; cow milk whey; 200 nM nominal in whole milk).
`CN1CCN(S(=O)(=O)c2cc([N+](=O)[O-])ccc2N(CCOS(C)(=O)=O)CCOS(C)(=O)=O)CC1` gave a concentration of 100 nM (NSG mice female, plasma; intraperitoneal, 25 mg/kg, 2 h).
`C=CCNc1c(O)cc2c(O)c1C[C@@H](C)C[C@H](OC)[C@H](O)[C@@H](C)/C=C(\C)[C@H](OC(N)=O)[C@@H](OC)/C=C\C=C(/C)C(=O)N2` — result for “patients with TEAE”: 46% (refers to: Diarrhea; unresectable or metastatic GIST/STS; intravenous, dose not given, all doses).
`O=[N+]([O-])c1ccc2c(c1)S(=O)(=O)C=C2` — result for “mean platelet volume”: 5.33 fL (male C57BL/6 mice, blood; intraperitoneal, 20 mg/kg, day 8, group average).
`COc1cccc2c1C(=O)c1c(O)c3c(c(O)c1C2=O)C[C@@](O)(C(=O)CO)C[C@@H]3O[C@H]1C[C@H](N)[C@H](O)[C@H](C)O1` — result for “heart weight reduction”: 20% (healthy BALB/cJ mice; 3 mg/kg weekly, 3 weeks; relative to: control).
Under “patients with adverse event”, `CN1CC[C@@H](c2c(O)cc(O)c3c(=O)cc(-c4ccc(C(F)(F)F)cc4Cl)oc23)[C@@H]1CO` is recorded as 5% (refers to: Syncope; relapsed or refractory haematological malignancies; oral, dose not given, grade 3 to 4, all arms).
`O=C1Nc2cc3[nH]nc(-c4ccncc4)c3cc2CN1Cc1ccccc1` — result for “patients with dizziness”: 20% (CTCAE v4.03; advanced solid tumour patients; intravenous, 7.2 mg/kg, schedules 1/2).
Under “gastrointestinal disorder TEAE”, `Cn1c(-c2ccc(C(N)=O)cc2F)nnc1C(C)(C)Oc1c(F)cc(Cl)cc1F` is recorded as 16.7% (human; oral, 6 mg, single ascending dose).
`Cc1ccc(-c2cccc(CN3CCCC(c4nc5ccc(C)cc5c(=O)[nH]4)C3)c2)c(C)c1` (centres unmarked) has a maximum response of -8.47% (Vero-E6; CellTiter-Glo ATP; 72 h, second round 5-point; relative to: DMSO 0%, hyamine -100%, more negative, more toxic).
`CC1(C)C(/C=C(\Cl)C(F)(F)F)C1C(=O)OC(C#N)c1cccc(Oc2ccccc2)c1` (centres unmarked) — result for “enzyme contribution to clearance”: 0.94% (refers to: CYP3A4; human, age 6 months).
`COc1cc2c(Oc3ccc4[nH]c(C)cc4c3F)ccnc2cc1OCC1(N)CC1`: “grade 1 or 2 sinus tachycardia” 18.2% (paediatric recurrent refractory sarcoma; 12 mg).
The atrial fibrillation of `CCCCCCCCCCCCCCCC(=O)N[C@@H](CCC(=O)NCCCC[C@H](NC(=O)[C@H](CC(=O)O)NC(=O)[C@H](CO)NC(=O)[C@@H](NC(=O)[C@H](Cc1ccccc1)NC(=O)[C@@H](NC(=O)CNC(=O)[C@H](CCC(N)=O)NC(=O)[C@H](CO)NC(=O)[C@@H](N)Cc1c[nH]cn1)[C@@H](C)O)[C@@H](C)O)C(=O)N[C@@H](CO)C(=O)N[C@@H](CCC(=O)O)C(=O)N[C@@H](Cc1ccc(O)cc1)C(=O)N[C@@H](CC(C)C)C(=O)N[C@@H](CC(=O)O)C(=O)N[C@@H](CO)C(=O)N[C@@H](CCC(=O)O)C(=O)N[C@@H](CCCNC(=N)N)C(=O)N[C@@H](C)C(=O)N[C@@H](CCCNC(=N)N)C(=O)N[C@@H](CC(=O)O)C(=O)N[C@@H](Cc1ccccc1)C(=O)N[C@H](C(=O)N[C@@H](C)C(=O)N[C@@H](Cc1c[nH]c2ccccc12)C(=O)N[C@@H](CC(C)C)C(=O)N[C@@H](CCC(=O)O)C(=O)N[C@@H](C)C(=O)NCC(=O)NCC(=O)O)C(C)C)C(=O)O` is reported as 9.1% (human, CrCl ≥30 to <45 mL/min; sc, 100 µg single dose).
For `C[C@]1(CO)Cc2ncn(-c3ccc(C#N)c(Cl)c3)c2C(=O)O1`, “subjects with drug-related TEAE” read 0% (refers to: abnormal skin odour; human; 40 mg multiple doses, fasted).
`C=CC(=O)N1CC[C@H](n2nc(C#Cc3cc(OC)cc(OC)c3)c3c(N)ncnc32)C1` — result for “adverse drug reaction incidence”: 8.3% (patients with advanced solid tumours; oral, dose not given, Dysgeusia, any grade, QD, together with: lanthanum carbonate hydrate).
`CC(=O)c1c(C)c2cnc(Nc3ccc(C4CCN(CCS(C)(=O)=O)CC4)cn3)nc2n(C2CCCC2)c1=O`: “patients with ALT increased” 21.1% (HR+/HER2- advanced breast cancer patients; oral, dose not given, all grades, dose escalation, sample B patients).
Under “related grade ≥3 adverse events”, `CC(C)n1c(C2CCNCC2)nc2c([N+](=O)[O-])c(Br)c(Br)cc21` is recorded as 1% (refers to: Pneumonia; AML patients; dose not given, all doses).
For `O=c1ccc2ncc(=O)n3c2n1C[C@H]3CN1CCC(NCc2cc3c(cn2)OCCC3)CC1`, the AUC(0-t) was 19000 ng·h/mL (healthy human volunteers, plasma; oral, 1500 mg, single dose alone, geometric mean).
`CC(C)C[C@H](NC(=O)[C@H](CCCCN)NC(=O)OCC1c2ccccc2-c2ccccc21)C(=O)N[C@H](C(=O)N[C@@H](Cc1ccccc1)C(=O)N[C@@H](Cc1ccccc1)C(=O)N[C@@H](CCCCN)C(=O)NCC(=O)N[C@@H](Cc1ccccc1)C(=O)N[C@@H](C)C(=O)N[C@@H](Cc1c[nH]c2ccccc12)C(=O)N[C@@H](CC(N)=O)C(=O)N[C@H](C(=O)N[C@H]1CSSC[C@@H](C(=O)N[C@@H](Cc2c[nH]cn2)C(=O)N[C@@H](CCCNC(=N)N)C(=O)N[C@@H](CCCNC(=N)N)C(=O)N[C@@H](C)C(=O)N[C@@H](CC(N)=O)C(N)=O)NC(=O)[C@H](C(C)C)NC(=O)[C@H](CCCNC(=N)N)NC(=O)[C@H](C(C)C)NC(=O)CNC(=O)[C@H](CC(N)=O)NC(=O)[C@H](CCCNC(=N)N)NC(=O)[C@H](Cc2ccc(O)cc2)NC(=O)[C@H](C(C)C)NC1=O)C(C)C)C(C)C`: “secondary structure content” 6.03% (circular dichroism, refers to: α-Helix; PBS; 80 µM, pH 7.4, together with: LTA 1 µM).
`CC(C)C(=O)OC[C@H]1O[C@@H](n2ccc(NO)nc2=O)[C@H](O)[C@@H]1O` has a bench-top stability of 97.2 ± 1.87% (rat fetus dialysate; 5 ng/mL, 6 h, room temperature, low concentration, together with: NHC 25 ng/mL).
`CO[C@H]1C[C@@H]2CC[C@@H](C)[C@@](O)(O2)C(=O)C(=O)N2CCCC[C@H]2C(=O)O[C@H]([C@H](C)C[C@@H]2CC[C@@H](OC(=O)NCCOCCOCCOCCOCCOCCOCCOCCOCCC(=O)N3CCc4cc(Cn5nc(-c6ccc7oc(N)nc7c6)c6c(N)ncnc65)ccc4C3)[C@H](OC)C2)C[C@@H](O)[C@H](C)/C=C(\C)[C@@H](O)[C@@H](OC)C(=O)[C@H](C)C[C@H](C)/C=C/C=C/C=C/1C`: “dose-reducing adverse events” 0% (phase 1 dose escalation, refers to: fatigue; advanced solid tumour patients; intravenous, 8 mg weekly, any grade).
`C[C@@H](NC(=O)N1C(=O)[C@H](Cc2ccnc(N)c2)[C@H]1C(=O)O)C1CCCCC1`: “incidence of albuminuria” 50% (healthy adult Chinese volunteers; continuous intravenous infusion, 2.25 mg/kg/h, 5-day infusion, CTCAE 5.0 grading).
`O=C(Nc1ccccc1)C1CCN(C(=O)Oc2cccnc2)CC1` — result for “subjects with dry mouth”: 0% (adverse event reporting; healthy women; oral, 60 mg, 7 days).

For quick reference, copied from above:
`O=[N+]([O-])c1ccc2c(c1)S(=O)(=O)C=C2` — result for “mean platelet volume”: 5.33 fL (male C57BL/6 mice, blood; intraperitoneal, 20 mg/kg, day 8, group average).
`COc1cccc2c1C(=O)c1c(O)c3c(c(O)c1C2=O)C[C@@](O)(C(=O)CO)C[C@@H]3O[C@H]1C[C@H](N)[C@H](O)[C@H](C)O1` — result for “heart weight reduction”: 20% (healthy BALB/cJ mice; 3 mg/kg weekly, 3 weeks; relative to: control).
Under “patients with adverse event”, `CN1CC[C@@H](c2c(O)cc(O)c3c(=O)cc(-c4ccc(C(F)(F)F)cc4Cl)oc23)[C@@H]1CO` is recorded as 5% (refers to: Syncope; relapsed or refractory haematological malignancies; oral, dose not given, grade 3 to 4, all arms).
`O=C1Nc2cc3[nH]nc(-c4ccncc4)c3cc2CN1Cc1ccccc1` — result for “patients with dizziness”: 20% (CTCAE v4.03; advanced solid tumour patients; intravenous, 7.2 mg/kg, schedules 1/2).
Under “gastrointestinal disorder TEAE”, `Cn1c(-c2ccc(C(N)=O)cc2F)nnc1C(C)(C)Oc1c(F)cc(Cl)cc1F` is recorded as 16.7% (human; oral, 6 mg, single ascending dose).
